Measured values gathered from unrelated publications.
Protocols differ between the studies behind these lines. Values joined by “and” are separate records of one study, mostly repeats; a detail may differ.
Target: Mitogen-activated protein kinase kinase kinase kinase 3 (MAP4K3, Homo sapiens, UniProt Q8IVH8)

`COc1c(Cl)cccc1Nc1c(-c2ccncc2C#C[C@@]2(C)CCCN2C(=O)/C=C/CN(C)C)[nH]c2c1C(=O)NCC2` gave a remaining binding of 95% (binding, competition with immobilised ligand; 3 µM).
The inhibition of `CS(=O)(=O)Nc1cccc(-c2csc3cnc(Nc4ccc(N5CCN(CCCCCOc6cccc7c6C(=O)N(C6CCC(=O)NC6=O)C7=O)CC5)cc4)nc23)c1` (stereo not drawn) is reported as 16.8% (probe labelling, inhibitor, KiNativ chemoproteomics; MOLT-4; 1 µM).
`CNC(=O)C[C@H](Cc1ccc(C#N)cc1)NC(=O)c1cc(-c2ccc(CN[C@H](C)c3ccc(C)cc3)o2)ccc1Cl` — result for “activity vs control”: 102% (enzyme activity, inhibitor; 1 µM).
`C=CC(=O)N1CCCC(n2c(=O)c3ncccc3n(Cc3ccc(Oc4ccccc4)cc3)c2=O)C1` (stereo not drawn) gave a remaining binding of 94% (cell-free assay, competition with immobilised ligand; 1 µM).
For `CCn1cc(C(=O)O)c(=O)c2c(N)c(F)c(NC3CCCCC3)cc21`, the inhibition was -7.5% (kinase activity; 0.1 µM, together with: ATP at Km).
`COc1cc(Nc2nc(C)cc(-c3cnn4nc(OC)ccc34)n2)cc(C(F)(F)F)c1` has a remaining activity of 100% (inhibitor; 1 µM; baseline: control).
With `CCN1CCN(Cc2ccc(C(=O)Nc3ccc(C)c(NCc4cnc5[nH]ccc5c4OC)c3)cc2C(F)(F)F)CC1` the remaining binding was 33% (binding, competition with immobilised ligand; 1 µM).
With `Nc1ncc2c(n1)-c1c([nH]c3ccc(C4=CCOCC4)cc13)CCC2` the remaining binding was 100% (binding, competition with immobilised ligand; 1 µM).
For `N[C@H]1CC[C@H](Nc2nccc(-c3cccnc3Oc3ccc(NC(=O)NC4CC4)c4ccccc34)n2)CC1`, “log2 LFQ intensity” read 25.9 and 25.8 and 26 (kinobead competition pulldown; HEK293/HCT116 lysate mixture; 10 µM, 1 h, 4 °C; lower = stronger competition).
`C=CC(=O)Nc1cc(-c2nn(C3CCN(CCNC(=O)[C@H](C)CCC45CC6CC(CC(C6)C4)C5)CC3)c3ncnc(N)c23)ccc1Oc1ccccc1` gave an inhibition of 5.2% (inhibitor, KiNativ profiling; biochemical; 2 µM).
For `Cc1cnc2nc1Nc1cccc(c1)COC/C=C/COCc1cc(ccc1OCCN1CCOCC1)N2`, “percent of control” read 88% (concentration not given).
`Cc1ccc(-c2c(/C=C(\C#N)C(=O)NC(C)C)n(CCCO)c3ncnc(N)c23)cc1` has a remaining binding of 100% (cell-free assay, competition with immobilised ligand; 1 µM).
`CC(C)=CC1OC(C)(C)C2C=C3C(=O)C(Cl)=CC(O)C3C3C(O)C4OC4C(=O)C132` (stereo not drawn) has a remaining binding of 96% (cell-free assay, competition with immobilised ligand; 10 µM).
For `COc1cc(Nc2nccc(-c3cnn4nc(OC)ccc34)n2)cc(C(F)(F)F)c1`, the remaining binding was 98% (binding, competition with immobilised ligand; 1 µM).
The remaining binding of `C=CC(=O)N1CCc2ccc(-n3c(=O)ccc4cnc5ccc(-c6cnn(C)c6)cc5c43)cc21` is reported as 94% (KINOMEscan; 1 µM; baseline: DMSO control).
The remaining binding of `CNC(=O)C1CCN(c2cc(C)c(F)cc2NC(=O)c2ccc(-c3cc(O)ccc3C)c(C)c2)CC1` is reported as 96% (binding, competition with immobilised ligand; 1 µM).
`C=CC(=O)N1Cc2nc(-c3cc(-c4cc(Cl)cnc4Cl)c(F)cc3F)n(-c3ccncn3)c2C1` gave an inhibition of -4% (cell-free assay, inhibitor; 1 µM).
`CN1CC[C@@H](COc2cnc(C#N)cc2-c2ccn3nc(NC(=O)C4CC4)cc3c2)C1` gave an inhibition of 11% (enzyme activity, inhibitor; 1 µM).
`O=C(Cc1ccc(OCc2ccccc2)cc1)NC1(C(=O)O)CCN(C(=O)c2ccc(-c3cccc(Cl)c3)cc2)CC1` — result for “activity vs control”: 100% (enzyme activity, inhibitor; 10 µM).
For `CNC1C[S+]2CC[S+]3CC[S+](C1)[Ru-4]321([N]=C=S)[n]2c3ccc(OC)cc3c3c4c(c5cc(F)c[n+]1c5c32)C(=O)NC4=O` (stereo not drawn), the remaining binding was 100% (KinomeScan; 0.1 µM; baseline: untreated).
With `CN1CCN(Cc2ccc(-c3ccc(CO[C@H]4CCC[C@@H]4NC(=O)c4cc(-c5cnn(C)c5)cnc4N)cc3)cc2)CC1` the inhibition was 8% (enzyme activity, inhibitor; 0.1 µM).

For quick reference, copied from above:
With `Nc1ncc2c(n1)-c1c([nH]c3ccc(C4=CCOCC4)cc13)CCC2` the remaining binding was 100% (binding, competition with immobilised ligand; 1 µM).
For `N[C@H]1CC[C@H](Nc2nccc(-c3cccnc3Oc3ccc(NC(=O)NC4CC4)c4ccccc34)n2)CC1`, “log2 LFQ intensity” read 25.9 and 25.8 and 26 (kinobead competition pulldown; HEK293/HCT116 lysate mixture; 10 µM, 1 h, 4 °C; lower = stronger competition).
`C=CC(=O)Nc1cc(-c2nn(C3CCN(CCNC(=O)[C@H](C)CCC45CC6CC(CC(C6)C4)C5)CC3)c3ncnc(N)c23)ccc1Oc1ccccc1` gave an inhibition of 5.2% (inhibitor, KiNativ profiling; biochemical; 2 µM).
